Measurements pooled from the literature.
Numbers after ± are the reported error.

With `CC(C)(O)c1ncc([S@](N)(=O)=NC(=O)Nc2c3c(cc4c2CCC4)CCC3)s1` the Cmax was 3470 ng/mL (healthy human, fed; oral, 25 mg twice daily, day 14, tablet formulation, geometric mean).
`CC(C)C[C@@H](NC(=O)[C@H](NC(=O)[C@H]1CCCN1)[C@H](C)O)C(=O)N[C@H](Cc1c[nH]cn1)C(=O)N[C@@H](C(=O)N[C@H](Cc1c[nH]cn1)C(=O)N[C@H](CC(N)=O)C(=O)N[C@H](CCCNC(=N)N)C(=O)N[C@H](CCCNC(=N)N)C(=O)N[C@H](CCCNC(=N)N)C(=O)N[C@H](CCCNC(=N)N)C(=O)N[C@H](CCCNC(=N)N)C(N)=O)[C@H](C)O` gave a Cmax of 71 ± 32 ng/mL (Beagle dog, CSF; intravenous, 3 mg/kg, single dose).
For `CCCC[C@H](NC(C)=O)C(=O)N[C@H]1CC(=O)NCCCC[C@@H](C(=O)N[C@@H](C(=O)N2CCC[C@@H]2C(N)=O)C(C)C)NC(=O)[C@H](Cc2c[nH]c3ccccc23)NC(=O)[C@H](CCCN=C(N)N)NC(=O)[C@@H](Cc2ccc3ccccc3c2)NC(=O)[C@@H]2CCCN2C1=O`, the Cmax was 5000 ± 800 ng/mL (Beagle dog, both sexes, plasma; subcutaneous, once daily, 2.25 mg/kg, day 5).
With `CCCC[C@H](NC(C)=O)C(=O)N[C@H]1CC(=O)NCCCC[C@@H](C(=O)N[C@@H](C(=O)N2CCC[C@@H]2C(N)=O)C(C)C)NC(=O)[C@H](Cc2c[nH]c3ccccc23)NC(=O)[C@H](CCCN=C(N)N)NC(=O)[C@@H](Cc2ccc3ccccc3c2)NC(=O)[C@@H]2CCCN2C1=O` the Cmax was 1210 ± 200 ng/mL (dog, cachectic, plasma; subcutaneous, 0.75 mg/kg once daily, day 28, 1 h post-dose).
For `Cc1ncc2c(n1)CN(C(=O)Nc1nc(-c3cccs3)ccc1N)C2`, the Cmax was 18600 ng/mL (beagle dog, male; oral, 120 mg/kg daily, day 14, 14-day toxicity study).
`CC(=O)N[C@H](CC(=O)O)C(=O)N[C@H](Cc1c[nH]c2ccccc12)C(=O)N[C@H](Cc1ccccc1)C(=O)N[C@H](CCCCN)C(=O)N[C@H](C)C(=O)N[C@H](Cc1ccccc1)C(=O)N[C@H](Cc1ccc(O)cc1)C(=O)N[C@H](CC(=O)O)C(=O)N[C@H](CCCCN)C(=O)N[C@@H](C(=O)N[C@H](C)C(=O)N[C@H](CCC(=O)O)C(=O)N[C@H](CCCCN)C(=O)N[C@H](Cc1ccccc1)C(=O)N[C@H](CCCCN)C(=O)N[C@H](CCC(=O)O)C(=O)N[C@H](C)C(=O)N[C@H](Cc1ccccc1)C(N)=O)C(C)C` gave a Cmax of 80.2 ng/mL (statin-treated high-risk CHD patients, plasma; oral, 500 mg daily, day 13, 0 to 8 h, mean, all subjects).
`N=C(N)NCCC[C@@H]1NC(=O)[C@H](Cc2c[nH]c3ccccc23)NC(=O)[C@@H](CC2CCCCC2)NC(=O)[C@@H]2CCCN2C(=O)[C@@H](NC(=O)CCc2ccccc2)CCCNC1=O` gave a Cmax of 770 ng/mL (C57BL/6J mouse, plasma; oral, 1 mg/kg, single dose).
The Cmax of `NC(=O)c1ccc(C(=O)NOCc2ccc(Sc3cccc(Cl)c3)c(C(F)(F)F)c2)cc1` is reported as 51300 ng/mL (male ICR mouse, plasma; intravenous, 10 mg/kg).
The Cmax of `Cc1ccc(OCC(=O)O)cc1` is reported as 1180 ± 275 ng/mL (Sprague-Dawley rat Crl:CD(SD), male, plasma; oral, 10 mg/kg/day of parent drug, day 90, 90-day repeated dosing).
`N#CC1(c2ccc3c(N)ncnn23)OC(COP(=O)(O)O)C(O)C1O` (stereo not shown) gave a Cmax of 27400 nmol/kg (LC-MS/MS; CD-1 mouse, kidney; oral, 100 mg/kg of remdesivir).

Excerpt of the above:
`CC(C)C[C@@H](NC(=O)[C@H](NC(=O)[C@H]1CCCN1)[C@H](C)O)C(=O)N[C@H](Cc1c[nH]cn1)C(=O)N[C@@H](C(=O)N[C@H](Cc1c[nH]cn1)C(=O)N[C@H](CC(N)=O)C(=O)N[C@H](CCCNC(=N)N)C(=O)N[C@H](CCCNC(=N)N)C(=O)N[C@H](CCCNC(=N)N)C(=O)N[C@H](CCCNC(=N)N)C(=O)N[C@H](CCCNC(=N)N)C(N)=O)[C@H](C)O` gave a Cmax of 71 ± 32 ng/mL (Beagle dog, CSF; intravenous, 3 mg/kg, single dose).
